Assay results of several laboratories.
Lines come from different studies, so protocols differ. Values joined by “and” are separate records of one study, mostly repeats; a detail may differ. ± marks the error that the study gave. Converted amounts (≈) assume the structure as drawn.
CYP2C8: Cytochrome P450 2C8 (CYP2C8, Homo sapiens, UniProt P10632)
UniProt P08183, sequence (whole entry, looked up): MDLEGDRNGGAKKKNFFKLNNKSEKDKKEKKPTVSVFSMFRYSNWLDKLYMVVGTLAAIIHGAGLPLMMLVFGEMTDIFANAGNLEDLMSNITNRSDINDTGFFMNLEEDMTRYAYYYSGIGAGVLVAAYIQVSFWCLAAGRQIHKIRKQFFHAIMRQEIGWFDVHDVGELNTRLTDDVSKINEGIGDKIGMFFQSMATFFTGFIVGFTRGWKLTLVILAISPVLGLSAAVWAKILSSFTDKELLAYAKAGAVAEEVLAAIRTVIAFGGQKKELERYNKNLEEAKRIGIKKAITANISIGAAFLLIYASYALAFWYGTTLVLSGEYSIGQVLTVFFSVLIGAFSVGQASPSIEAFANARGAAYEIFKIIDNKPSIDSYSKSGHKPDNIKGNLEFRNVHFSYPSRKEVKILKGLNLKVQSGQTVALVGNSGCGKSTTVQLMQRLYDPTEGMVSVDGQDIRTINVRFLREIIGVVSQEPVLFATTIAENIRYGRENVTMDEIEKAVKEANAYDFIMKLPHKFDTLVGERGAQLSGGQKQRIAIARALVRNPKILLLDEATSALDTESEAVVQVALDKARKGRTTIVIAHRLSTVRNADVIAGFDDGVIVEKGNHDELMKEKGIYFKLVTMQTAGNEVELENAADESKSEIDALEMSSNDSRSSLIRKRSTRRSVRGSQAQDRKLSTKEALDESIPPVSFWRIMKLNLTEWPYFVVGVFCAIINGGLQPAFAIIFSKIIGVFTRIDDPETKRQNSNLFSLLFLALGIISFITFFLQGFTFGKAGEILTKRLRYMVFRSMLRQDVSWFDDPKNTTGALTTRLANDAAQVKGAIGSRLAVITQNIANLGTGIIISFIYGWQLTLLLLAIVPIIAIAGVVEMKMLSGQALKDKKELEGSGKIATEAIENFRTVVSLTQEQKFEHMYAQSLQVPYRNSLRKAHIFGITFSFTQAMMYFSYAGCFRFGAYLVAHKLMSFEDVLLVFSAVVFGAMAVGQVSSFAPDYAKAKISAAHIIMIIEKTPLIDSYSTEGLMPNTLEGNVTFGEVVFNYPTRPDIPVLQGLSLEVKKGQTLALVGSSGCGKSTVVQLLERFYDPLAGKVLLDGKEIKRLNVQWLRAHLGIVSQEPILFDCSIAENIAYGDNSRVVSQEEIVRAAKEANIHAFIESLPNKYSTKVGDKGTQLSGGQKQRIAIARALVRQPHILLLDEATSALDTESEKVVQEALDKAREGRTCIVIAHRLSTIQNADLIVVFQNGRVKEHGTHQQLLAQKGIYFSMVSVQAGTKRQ
UniProt P33261, sequence (whole entry, looked up): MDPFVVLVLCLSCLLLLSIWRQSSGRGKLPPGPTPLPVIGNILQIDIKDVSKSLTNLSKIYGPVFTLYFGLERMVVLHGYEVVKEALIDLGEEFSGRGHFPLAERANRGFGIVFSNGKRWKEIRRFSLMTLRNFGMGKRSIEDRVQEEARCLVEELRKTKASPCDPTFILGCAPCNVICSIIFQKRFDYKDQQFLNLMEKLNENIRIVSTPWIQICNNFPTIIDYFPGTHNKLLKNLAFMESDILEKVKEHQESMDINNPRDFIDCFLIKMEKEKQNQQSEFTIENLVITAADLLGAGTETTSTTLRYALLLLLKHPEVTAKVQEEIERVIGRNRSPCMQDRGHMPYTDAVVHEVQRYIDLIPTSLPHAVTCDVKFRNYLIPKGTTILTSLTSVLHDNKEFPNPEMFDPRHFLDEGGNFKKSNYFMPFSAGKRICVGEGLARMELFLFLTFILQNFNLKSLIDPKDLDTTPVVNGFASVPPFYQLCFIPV

SMILES	target or system	test	test system	conditions	how to read	quantity	result
Cc1nc2cccc(OCC(C)(C)C(=O)NC(C)C)c2c(N)c1C(=O)[O-].[Na+]	Salmonella typhimurium	–	TA1537	0.80 mg per plate, without S9, plate incorporation	–	revertant colonies per plate	13 ± 2
CC[C@H](C)[C@H](NC(=O)[C@H](CCCCN)NC(=O)[C@H](CCCCN)NC(=O)[C@H](Cc1ccccc1)NC(=O)[C@H](Cc1ccccc1)NC(=O)[C@H](CCCCN)NC(=O)[C@H](CCCCN)NC(=O)[C@H](Cc1ccccc1)NC(=O)[C@H](CCCNC(=N)N)NC(=O)[C@@H](N)CCCCN)C(=O)N[C@@H](CCCCN)C(=O)N[C@@H](CCCCN)C(=O)N[C@@H](CO)C(=O)N[C@H](C(=O)N[C@@H](CCCCN)C(=O)N[C@@H](CCCCN)C(=O)N[C@@H](CCCNC(=N)N)C(=O)N[C@H](C(=O)N[C@@H](CCCCN)C(=O)N[C@@H](CCCCN)C(=O)N[C@@H](CC(C)C)C(=O)N[C@@H](Cc1ccccc1)C(=O)N[C@@H](CCCCN)C(=O)N[C@@H](CCCCN)C(=O)N1CCC[C@H]1C(=O)N[C@@H](CCCNC(=N)N)C(=O)N[C@H](C(=O)N[C@H](C(=O)N1CCC[C@H]1C(=O)N[C@H](C(=O)N[C@@H](CO)C(=O)N[C@H](C(=O)N1CCC[C@H]1C(=O)N[C@@H](Cc1ccccc1)C(=O)O)[C@@H](C)CC)[C@@H](C)CC)[C@@H](C)CC)C(C)C)C(C)C)C(C)C	Pseudomonas aeruginosa	–	P1	after heating at 37 °C	–	MIC	4 mg/L (≈ 0.948 µM)
CCN(CC)CCOc1ccc(-c2nnn(Cc3ccc(OC)cc3)c2N)cc1	CYP2C8	CYP phenotyping	–	concentration not given	–	inhibition	86.3%
CC[C@H](C)[C@H](NC(=O)[C@H](Cc1ccccc1)NC(=O)[C@H](CCC(=O)O)NC(=O)[C@H](CCCCN)NC(=O)[C@H](C)NC(=O)[C@H](C)NC(=O)[C@H](CCC(N)=O)NC(=O)CNC(=O)[C@H](CCC(=O)O)NC(=O)[C@H](CC(C)C)NC(=O)[C@H](Cc1ccc(O)cc1)NC(=O)[C@H](CO)NC(=O)[C@H](CO)NC(=O)[C@@H](NC(=O)[C@H](CC(=O)O)NC(=O)[C@H](CO)NC(=O)[C@@H](NC(=O)[C@H](Cc1ccccc1)NC(=O)[C@@H](NC(=O)CNC(=O)[C@H](CCC(=O)O)NC(=O)[C@H](C)NC(=O)[C@@H](N)Cc1c[nH]cn1)[C@@H](C)O)[C@@H](C)O)C(C)C)C(=O)N[C@@H](C)C(=O)N[C@@H](Cc1c[nH]c2ccccc12)C(=O)N[C@@H](CC(C)C)C(=O)N[C@H](C(=O)N[C@@H](CCCCN)C(=O)NCC(=O)N[C@@H](CCCNC(=N)N)C(=O)NCC(=O)N[C@@H](Cc1ccccc1)C(=O)N[C@@H](Cc1ccccc1)C(=O)NCC(=O)O)C(C)C	DPP-4 (recombinant)	substrate, LC-MS	–	500 µM, 4 h	–	remaining peptide	93%
CNC(=O)CC1CN(C(=O)c2ccc(C(F)(F)F)cn2)CCN1C(=O)c1cccnn1 (centres unmarked)	Huh-7-ACE2	CellTiter-Glo	–	3.125 µM, 48 h, unit not given	reference: DMSO	viability	0.957 and 0.99 and 1.01
COc1ccc(-n2cc(C(=O)N3C[C@]4(OC(=O)c5ccccc5NC(C)=O)CC[C@H](OC)[C@@]56[C@@H]4C[C@@H]([C@@H]35)[C@@]3(O)C[C@H](OC)[C@H]4C[C@@H]6[C@]3(O)[C@H]4OC)nn2)cc1	–	–	Sprague-Dawley rat, plasma	intravenous, 2 mg/kg, 0.5 h	–	plasma concentration	0.0363 µg/mL
C[C@@H](c1ccc2nccn2c1)n1nnc2ncc(-c3cn[nH]c3)nc21	Cytochrome P450 2C19 (CYP2C19, Homo sapiens, UniProt P33261)	–	human liver microsomes	10 and 50 µM, 30 min preincubation, with: ± NADPH	–	time-dependent inhibition	< 20%
NC[C@]1(CC(=O)O)CC[C@@H]([18F])CC1	–	PET, arterial plasma	rhesus monkey, plasma parent	intravenous, baseline	–	slow-phase half-life	1.47 h
C[C@]12CC[C@H]3[C@@H](CCC4=CC(=O)CC[C@@]43C)[C@@H]1CC[C@@H]2O	–	–	human liver microsomes	1 nM	–	intrinsic clearance	71.6 µL/min/mg
CNC(=O)C[C@H](Cc1ccncc1)NC(=O)[C@@H](Cc1cccc(Br)c1)NC(=O)[C@@H](N)Cc1cccc(F)c1	Huh-7-ACE2	CellTiter-Glo	–	12.5 µM, 48 h, unit not given	reference: DMSO	viability	1.03 and 1.09 and 1.08
CC(=O)NCCCC[C@@H]1NC(=O)[C@H](Cc2c[nH]c3c(C)cccc23)NC(=O)[C@H]([C@@H](C)O)NC(=O)[C@H](CC(N)=O)NC(=O)[C@@H](NC(C)=O)C(C)(C)SSC(C)(C)[C@@H](C(=O)N[C@@H](Cc2ccc(OCCN)cc2)C(=O)N[C@@H](Cc2ccc3ccccc3c2)C(=O)NC2(C(=O)N[C@@H](CCC(=O)O)C(=O)N[C@@H](CC(N)=O)C(=O)N[C@@H](Cc3cccnc3)C(=O)N(C)CC(N)=O)CCOCC2)NC1=O	ATP-dependent translocase ABCB1 (ABCB1, Homo sapiens, UniProt P08183)	transport, inhibitor	LLC-PK1 expressing MDR1	100 µM, 90 min, with: [3H]digoxin	–	efflux ratio	14.6
O=C1NC2(CC2)COc2ncc(F)cc2[C@H]2COCCN2c2ccn3ncc1c3n2	–	–	Sprague-Dawley rat, female, serum	oral, 10 mg/kg/day, 4 weeks daily, end of recovery period	–	creatine kinase activity	322 ± 86 U/L
Cc1ccc(NS(=O)(=O)c2c(C(=O)N3CCCCCC3)c(C)n(C)c2C)c(Cl)c1	human cells	–	–	0.046 µM, 60 h	–	viability	96.4%
CCOc1ccc(CN2CC[C@H]2C(=O)NC)cc1-c1cccc(C(=O)NC[C@@H]2COC(C)(C)O2)c1	Huh-7-ACE2	CellTiter-Glo	–	0.000763 µM, 48 h, unit not given	reference: DMSO	viability	0.904 and 0.829 and 0.895
CC(=O)N[C@H](C(=O)N[C@@H](CCCC(=O)OC(C)(C)C)C(=O)N[C@@H](CCC1CCCCC1)C(=O)N[C@@H](CC(=O)O)C(=O)COC(=O)c1c(C)cccc1C)C(C)(C)C	–	–	C57BL/6N mouse, female, whole blood	intraperitoneal, dose not given, 0.08 h	–	blood concentration	297 µM
COc1cc2c(cc1NC(=O)c1cncn1C)C[C@H]1[C@H]3CCCC[C@@]23CCN1C	–	–	C57BL/6 mouse, plasma	oral, 50 µg/g, 300 min	–	plasma concentration	1.72 µg/mL
Cc1cc(-c2ccc3ccccc3c2)nnc1NCCN1CCN(C)CC1	CYP2C8	substrate	recombinant enzyme	100 nM, 1 h	–	remaining compound	75%

Excerpt of the above:
SMILES	target or system	test	test system	conditions	how to read	quantity	result
CC(=O)N[C@H](C(=O)N[C@@H](CCCC(=O)OC(C)(C)C)C(=O)N[C@@H](CCC1CCCCC1)C(=O)N[C@@H](CC(=O)O)C(=O)COC(=O)c1c(C)cccc1C)C(C)(C)C	–	–	C57BL/6N mouse, female, whole blood	intraperitoneal, dose not given, 0.08 h	–	blood concentration	297 µM
